Results gathered from unrelated publications.
Every numbered part comes from another study and shows a few of its results, in no order.

Sample 1
Target: Interferon regulatory factor 5, full length, phosphomimetic (IRF5, Homo sapiens, UniProt Q13568-2, residues 1-514, K96S/S451D/S453D/S456D/S462D)
Method: protein-binding microarray
Molecule type: double-stranded DNA, one strand shown
Medium: in vitro
Concentration: 250 nM
Setting: 60-bp whole probe
Together with: salmon DNA 0.4 mg/ml
Reference: random background probes
Direction: higher = stronger binding
| Strand | log fluorescence [z-score] |
| --- | --- |
| GCCTAGCACTTAGGTTTCGACTATCGATTAGTGCTAGTCTTGATTCGCTTGACGCTGCTG | 9.18 |
| GCCTAGCACTTAGGTATCGGGCTGGGTTAGTGCTAGGTCTTGATTCGCTTGACGCTGCTG | 1.82 |
| GCCTAGCACTTAGATTTCGGGTTTCTATTAGTGCTAGTCTTGATTCGCTTGACGCTGCTG | 5.82 |

Sample 2
Target: Histone acetyltransferase KAT6A, winged helix 2, GST fusion (KAT6A, Homo sapiens, UniProt Q92794, residues 85-181)
Method: protein binding microarray
Molecule type: double-stranded DNA, one strand shown
Medium: in vitro
Concentration: not given
Setting: 8-mer, flanks averaged, mean of 2 arrays, mostly near background
Reference: not given
Direction: higher = stronger binding
Target sequence (chain): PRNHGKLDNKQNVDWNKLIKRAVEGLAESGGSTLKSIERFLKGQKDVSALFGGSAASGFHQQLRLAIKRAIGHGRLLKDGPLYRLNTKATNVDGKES
| Strand | E-score |
| --- | --- |
| GCTTTCCC | 0.112 |
| AAGCTTAG | 0.0885 |
| ACAGAGCG | -0.0319 |

Sample 3
Target: Prothrombin, mature alpha-thrombin (F2, Homo sapiens, UniProt P00734)
Method: aptamer microarray, sandwich
Molecule type: DNA with 2'F-ANA
Medium: in vitro
Concentration: 200 nM
Setting: whole 15-mer aptamer, many near background
Together with: Cy3 exosite-II aptamer, 400 nM
Direction: higher = stronger binding
Strand: GGTTGGTGTGGTTGG
| Modification | mean fluorescence intensity |
| --- | --- |
| 2'F-ANA at 2 7 8 13 14 15 | 165 a.u. |
| 2'F-ANA at 1 4 5 6 7 10 15 | 47.9 a.u. |
| 2'F-ANA at 1 5 8 13 15 | 48.8 a.u. |
| 2'F-ANA at 1 2 5 7 8 9 12 14 15 | 50.1 a.u. |
| 2'F-ANA at 4 5 6 7 9 10 12 14 15 | 51.2 a.u. |
| 2'F-ANA at 2 3 4 5 6 7 10 12 14 15 | 47.5 a.u. |

Single results of other studies
| Molecule | target | assay | system | conditions | how to read | measurement | result |
| --- | --- | --- | --- | --- | --- | --- | --- |
| PhoQ, residues 284 288 289 292 302 303 AAQSYM | PhoP, residues 12 14 15 18 19 LHSVW (Escherichia coli, UniProt P23836) | Sort-seq, measured: YFP reporter | E. coli | PhoQ-PhoP variant library, together with: 10 µM Mg2+ | reference: high Mg2+ state, higher = stronger signaling | fold induction | 4.36 |
